Published values collected from several papers.
Compare with care: the assays were run in different laboratories. ± gives the spread as reported.

SMILES | tested on | test | system | setting | scale | measurement | value
FC(F)(F)c1ccc(CNc2ccc(Cc3c[nH]c4ncc(Cl)cc34)cn2)cn1 |  | measured: Pruritus | patients with advanced solid tumours, non-TGCT cohort | oral, 1000 mg/day, any grade |  | treatment-related adverse events | 6%
CC1(C)CC[C@]2(NC(=O)C(C)(F)F)CC[C@]3(C)[C@H](C(=O)C=C4[C@@]5(C)C=C(C#N)C(=O)C(C)(C)[C@@H]5CC[C@]43C)[C@@H]2C1 |  |  | human, plasma | oral, 150 mg once daily, day 17 predose, geometric mean |  | trough concentration | 36.5 ng/mL
CC(C)C[C@H](NC(=O)CNC(=O)c1cc(Cl)ccc1Cl)B(O)O |  | measured: Hypophosphataemia | human newly diagnosed multiple myeloma | oral, dose not given, maintenance, grade 3, onset cycle 17 or later |  | treatment-emergent adverse events | 0%
O=C(c1cccnc1-c1ccncc1)N1CCC(O)(Cc2ccccc2)CC1 |  |  | healthy Japanese adults, plasma | oral, 1200 mg single dose |  | Vz/F | 769 L
Nc1ncn([C@H]2C[C@H](O)[C@@H](CO)O2)c(=O)n1 |  |  | mouse plasma | 1.2 ng/mL, 3 months, -80 °C, long-term stability, with THU |  | mean deviation from nominal | 11.6%
COc1c(O)c(C)cc2c1C(=O)c1c(cc(O)c(O)c1O)C2=O | HK-2 co-cultured with HepaRG | MTT |  | 33.33 µM, 48 h | reference: untreated control | viability | 87.7 ± 4.03%
NC/C(=C\F)COc1cccc(Cn2c(=S)[nH]c(=O)c3[nH]cnc32)c1 |  |  | human liver microsomes | 1 µM, 1 h |  | remaining compound | 75%
COc1ccc2c(c1)CN(C(=O)CCN1CCC(Cc3ccccc3)CC1)CC[S@@+]2[O-] |  | telemetry | conscious male beagle dogs | intravenous, NG, 24 h |  | systolic blood pressure | 141 ± 22 mmHg
CCCC[C@@H]1NC(=O)[C@H]([C@@H](C)CC)NC(=O)[C@@](C)(NC(=O)CNC(=O)[C@@H](NC(=O)[C@H](Cc2ccccc2)NC(=O)[C@H](C)NC(=O)[C@H](CCCCN)NC(=O)CNC(=O)[C@H](Cc2ccccc2)NC(=O)[C@H](CCCCN)NC(=O)[C@H](CCCCN)NC(=O)[C@H](C)NC(=O)[C@H](CO)NC(=O)[C@H](Cc2c[nH]cn2)NC(=O)[C@H](CC(C)C)NC(=O)[C@H](Cc2ccccc2)NC(=O)[C@H](CCCCN)NC(=O)CNC(=O)[C@@H](NC(=O)CN)[C@@H](C)CC)C(C)C)CCCC=CCCC[C@@](C)(C(N)=O)NC(=O)[C@H](CC(N)=O)NC1=O |  | HPLC C18 column |  |  |  | retention time | 13.1 min
COc1cc2c(c(O)c1OC)C(=O)c1c(cc(C)c(O[C@@H]3O[C@H](CO)[C@@H](O)[C@H](O)[C@H]3O)c1OC)C2=O | HK-2 co-cultured with HepaRG | MTT |  | 16.67 µM, 48 h | reference: untreated control | cell viability | 101 ± 4.14%
CC[C@H](CO)N(CCN(N=O)[C@H](CC)CO)N=O | Salmonella typhimurium | mutagenicity, Ames plate incorporation | TA98 | 150 µg/plate, without S9, methanol |  | revertant colonies per plate | 28.3 ± 3
CCCCCCCCCCCCCCCC(=O)N[C@@H](CCC(=O)NCCCC[C@@H]1NC(=O)[C@H]([C@@H](C)CC)NC(=O)[C@@H](NC(=O)[C@@H]2CCCN2C(=O)[C@H](Cc2ccccc2)NC(=O)[C@H](Cc2c[nH]cn2)NC(=O)[C@@H](NC(=O)[C@H](CC(=O)O)NC(=O)CC(C)C)[C@@H](C)O)CSSC[C@@H](C(=O)N[C@@H](CCCCN)C(N)=O)NC(=O)CNC(=O)[C@H](CCCCN)NC(=O)[C@H](CO)NC(=O)[C@H](CCCNC(=N)N)NC(=O)[C@@H]2CCCN2C(=O)[C@H](CCC(=O)O)NC(=O)[C@H](Cc2ccccc2)NC1=O)C(=O)O |  |  | healthy volunteers, plasma | subcutaneous, 20 mg single, lyophilised formulation |  | Vz/F | 40.5 ± 20.1 L
Cc1ccc([C@@H]2O[C@H](CO)[C@@H](O)[C@H](O)[C@H]2O)cc1Cc1ccc(-c2ccc(F)cc2)s1 |  |  | Japanese type 2 diabetes patients | 25 mg, day 17, 24 h urine collection | reference: baseline | urinary magnesium excretion change | 19.4 mg
C[C@@H](N)C1CCN(S(=O)(=O)c2cccc3cnccc23)CC1 |  | measured: Tachycardia | healthy volunteers | 150 mg, fasted |  | TEAE incidence | 0%
CN(CCCNC(=O)c1cccc(C(=O)O)c1)CCCNC(=O)c1cc(NC(=O)c2cc(NC(=O)c3cc(NC(=O)c4cc(NC(=O)C[C@H](CNC(=O)c5cc(NC(=O)c6cc(NC(=O)c7nc(NC(=O)c8nccn8C)cn7C)cn6C)cn5C)NC(=O)c5ccccc5)cn4C)cn3C)cn2C)cn1C |  | dynamic light scattering | 0.1% DMSO in PBS | 25 °C |  | critical aggregation concentration | 1 µM
CCCCOc1ccc([C@H]2CC[C@H](CCC)CC2)c(F)c1F |  |  | rat, fetus | 5000 ng/mL in perfusate, high dose, mixture of 21 LCMs |  | fetal accumulation | 1.43 ± 0.77 ng/g
CC[C@H](C)[C@H](NC(=O)[C@H](Cc1ccccc1)NC(=O)[C@H](CCC(=O)O)NC(=O)[C@H](CCCCNC(=O)COCCOCCNC(=O)COCCOCCNC(=O)CC[C@H](NC(=O)CCCCCCCCCCCCCCCCC(=O)O)C(=O)O)NC(=O)[C@H](C)NC(=O)[C@H](C)NC(=O)[C@H](CCC(N)=O)NC(=O)CNC(=O)[C@H](CCC(=O)O)NC(=O)[C@H](CC(C)C)NC(=O)[C@H](Cc1ccc(O)cc1)NC(=O)[C@H](CO)NC(=O)[C@H](CO)NC(=O)[C@@H](NC(=O)[C@H](CC(=O)O)NC(=O)[C@H](CO)NC(=O)[C@@H](NC(=O)[C@H](Cc1ccccc1)NC(=O)[C@@H](NC(=O)CNC(=O)[C@H](CCC(=O)O)NC(=O)C(C)(C)NC(=O)[C@@H](N)Cc1cnc[nH]1)[C@@H](C)O)[C@@H](C)O)C(C)C)C(=O)N[C@@H](C)C(=O)N[C@@H](Cc1c[nH]c2ccccc12)C(=O)N[C@@H](CC(C)C)C(=O)N[C@H](C(=O)N[C@@H](CCCNC(=N)N)C(=O)NCC(=O)N[C@@H](CCCNC(=N)N)C(=O)NCC(=O)O)C(C)C |  |  | healthy human | subcutaneous, 1.5 mg once weekly, 0 h, steady state | reference: placebo, baseline | change in QTcB | 8.8 ms
CNC(=O)c1cc(Oc2ccc(NC(=O)Nc3cc(C(C)(C)C)nn3-c3ccc4ncccc4c3)c(F)c2)ccn1 |  | measured: worst grade 1 | human | oral, dose not given, cycles 1 and 2, Medium AUC(0-4 h) subgroup |  | patients with nervous system disorder AE | 36%

SMILES | tested on | test | system | setting | scale | measurement | value
CCN1/C(=C/C(C)=O)Sc2ccc(F)cc21 |  |  | cynomolgus monkey | oral, 10 mg/kg, 2 h post-dose | reference: pre-dose | mean blood pressure change | 104 ± 5.7%
N#Cc1ccc2c(c1)[C@H]1CCCN(C(=O)c3ccc4[nH]cnc4c3)[C@H]1C2 |  |  | human males | 80 mg, day 15 |  | SHBG level | 34.7 nmol/L
Nc1nc2c(nc([N+](=O)[O-])n2[C@@H]2O[C@H](CO)[C@@H](O)[C@H]2O)c(=O)[nH]1 |  |  | citrate phosphate buffer | 0.5 mM, pH 5.00, 37 °C |  | depurination half-life | 15.1 h
C=CC(=O)N(C)CCOc1c(N)ncnc1-c1cc(F)cc(NC(=O)c2ccc(C3CC3)cc2F)c1C |  |  | human | oral, 50 mg, day 3, arithmetic mean, given alone |  | AUC(0-inf) per dose | 5.29 ng·h/mL/mg
CCO[C@H]1CCN(Cc2c(OC)cc(C)c3[nH]ccc23)[C@H](c2ccc(C(=O)O)cc2)C1 |  |  | human moderate hepatic impairment, plasma | oral, 200 mg single dose, median |  | unbound AUC0–12 | 4.18 µg·h/mL
Cl.[2H]C([2H])([2H])CC(=O)c1cnc(NC(=O)C2CC2)cc1Nc1cccc(-c2ncn(C([2H])([2H])[2H])n2)c1OC |  | geometric mean | human | oral, 10 mg single dose, fasted, liquid |  | Vz/F | 164 L
CC(C)NCCCC[C@@H]1NC(=O)[C@H](Cc2ccc(O)cc2)NC(=O)[C@H](Cc2ccccc2)NC(=O)CC[C@H](C(=O)N[C@@H](CCCCNC(C)C)C(=O)N[C@@H](CCCCNC(=O)[C@H](CCC(=O)O)NC(=O)[C@H](CCC(=O)O)NC(=O)[C@H](CCC(=O)O)NC(=O)CN2CCN(CC(=O)O)CCN(CC(=O)O)CCN(CC(=O)O)CC2)C(N)=O)NC(=O)CNC(=O)[C@H](Cc2ccc3ccccc3c2)NC(=O)[C@@H](CCCNC(=N)N)NC1=O [gallium-68 labelled] |  |  | mouse with Granta-519 xenograft, heart | intravenous, 1 h |  | tissue uptake | 0.12 %ID/g
COc1cc2c3c(n(CCCN4CCOCC4)c(=O)c2cc1OC)-c1cc2c(cc1C3=O)OCO2 |  |  | beagle dog, female, plasma | intravenous infusion, 50 mg/m^2, 1 h infusion, vehicle 1 |  | Vz | 401 ± 199 L/m²
Cc1ccc(Sc2ccccc2N2CCNCC2)c(C)c1 |  | measured: haemoglobin decreased | healthy adult men | oral, 5 mg daily, 12 days |  | participants with TEAE | 0%
CCc1cc(C(=O)NC)c2nccc(N3CCc4c(cc(Cn5ccnc5)cc4-c4cn(C)nc4C(F)(F)F)C3=O)c2c1 |  |  | Sprague Dawley rats | oral, 100 mg/kg twice daily, 7 days | reference: vehicle | serum MCV change | -1.44%
O=C(Nc1nc2cccc(-c3ccc(CN4CCS(=O)(=O)CC4)cc3)n2n1)C1CC1 |  | measured: injection site haematoma | human rheumatoid arthritis patients | oral, 150 mg once daily, 4 weeks, regardless of relatedness |  | treatment-emergent adverse events | 6.7%
CC(C)n1c(Nc2cccnc2)nc2cnc(Nc3ccc(N4CCN(C)CC4)cc3)nc21 |  | measured: urine leukocytes positive | healthy male subjects | oral, 150 mg, study, with: rifampin |  | subjects with adverse event | 7.1%
CC(C)(C(=O)N1CCOc2c(C#N)cncc2C1)C(F)F |  | measured: upper abdominal pain | human | oral, 20 mg once daily, 14 days, multiple ascending dose |  | subjects with adverse event | 0%
N#CCNC(=O)c1ccc(-c2ccnc(Nc3ccc(N4CCOCC4=O)cc3)n2)cc1 |  |  | healthy volunteers, plasma | dose not given, with: ritonavir multiple-dose | reference: compound alone | Cmax increase | 30%
O=C(O)CCC(=O)O.[2H]C([2H])([2H])Oc1cc(C)c2[nH]ccc2c1CN1CC[C@@H](C2CC2)C[C@H]1c1ccc(C(=O)O)cc1 |  | multiple ascending dose | healthy Chinese subjects | 300 mg once daily |  | subjects with muscle pain TEAE | 0%
Cc1cc(C(=O)NC(C)(C)COc2cccc3c2C(N)=NS(=O)(=O)N3)cc(C)n1 |  |  | Sprague-Dawley rat, female, plasma | oral, 10 mg/kg |  | dose-normalised AUC(0-last) | 1.91 ng·h/mL/mg/kg
NC1(C(=O)N[C@@H](CCO)c2ccc(Cl)cc2)CCN(c2nc[nH]c3nccc2-3)CC1 |  |  | metastatic CRPC patients | dose not given, grade 3 to 4, treatment-related, all doses, with: enzalutamide 160 mg daily |  | incidence of Dysuria | 0%

Repeated from above:
SMILES | tested on | test | system | setting | scale | measurement | value
CCc1cc(C(=O)NC)c2nccc(N3CCc4c(cc(Cn5ccnc5)cc4-c4cn(C)nc4C(F)(F)F)C3=O)c2c1 |  |  | Sprague Dawley rats | oral, 100 mg/kg twice daily, 7 days | reference: vehicle | serum MCV change | -1.44%
O=C(Nc1nc2cccc(-c3ccc(CN4CCS(=O)(=O)CC4)cc3)n2n1)C1CC1 |  | measured: injection site haematoma | human rheumatoid arthritis patients | oral, 150 mg once daily, 4 weeks, regardless of relatedness |  | treatment-emergent adverse events | 6.7%
CC(C)n1c(Nc2cccnc2)nc2cnc(Nc3ccc(N4CCN(C)CC4)cc3)nc21 |  | measured: urine leukocytes positive | healthy male subjects | oral, 150 mg, study, with: rifampin |  | subjects with adverse event | 7.1%
CC(C)(C(=O)N1CCOc2c(C#N)cncc2C1)C(F)F |  | measured: upper abdominal pain | human | oral, 20 mg once daily, 14 days, multiple ascending dose |  | subjects with adverse event | 0%
